Assay results of several laboratories.
Each numbered part is a random draw from the data of one study; scales do not carry over between parts. Substitutions count along the parent as printed.
UniProt Q9BUB5, sequence (whole entry, looked up): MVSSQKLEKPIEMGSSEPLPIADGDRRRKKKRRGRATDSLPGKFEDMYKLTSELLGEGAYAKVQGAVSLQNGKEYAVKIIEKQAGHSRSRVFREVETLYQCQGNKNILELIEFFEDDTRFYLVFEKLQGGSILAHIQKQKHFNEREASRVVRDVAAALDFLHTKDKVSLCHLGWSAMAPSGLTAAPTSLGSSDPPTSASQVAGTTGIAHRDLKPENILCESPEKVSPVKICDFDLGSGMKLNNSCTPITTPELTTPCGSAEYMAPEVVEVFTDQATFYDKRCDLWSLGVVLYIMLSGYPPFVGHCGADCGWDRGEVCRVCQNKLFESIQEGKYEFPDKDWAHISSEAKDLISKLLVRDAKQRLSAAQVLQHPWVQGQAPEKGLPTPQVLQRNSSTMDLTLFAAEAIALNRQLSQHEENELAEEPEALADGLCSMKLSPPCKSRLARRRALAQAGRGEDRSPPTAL

Study 1
Target: CCNF, cyclin fold, Cln2 fusion (human)
Technique: yeast growth competition, sequencing
Medium: yeast
Setting: weak parent motif
Reference: not given
Reading: higher = stronger binding
Starting sequence: PKN2 docking peptide (human); VSAVQKLDFSDTM
| Variant | normalised enrichment score |
| --- | --- |
| VSAVQKLDFSDTS [M13S] | 0.234 |
| VSAVQKLAFSDTM [D8A] | 0.569 |
| VSAVQKLDFSDTG [M13G] | 1.14 |
| VSAVQKLDFSDIM [T12I] | 0.717 |
| VSAVQKLDFSDTQ [M13Q] | 0.114 |
| VSAVQKLDFADTM [S10A] | 0.614 |
| VSCVQKLDFSDTM [A3C] | 1.01 |
| VSAVQKLDGSDTM [F9G] | -0.372 |

Study 2
Target: TAR DNA-binding protein 43, full length, His tag (TARDBP, Homo sapiens, UniProt Q13148, residues 1-414)
Technique: RNA Bind-n-Seq
Molecule type: RNA
Medium: in vitro
Concentration: 20 nM
Setting: 6-mer, flanks averaged, single round
With: 150 mM LiCl
Reference: input library
Reading: higher = stronger binding
| Sequence | 6-mer enrichment (R) |
| --- | --- |
| GCGUCC | 0.944 |
| GCUGAG | 1 |
| AAUUCG | 0.879 |
| GUUGCC | 1.08 |
| UGCAUC | 0.876 |
| ACGCAU | 0.869 |
| CUGCAA | 0.857 |
| GGUUUG | 1.36 |

Other studies, line by line
| Molecule | target | test | system | conditions | scale | measurement | result |
| --- | --- | --- | --- | --- | --- | --- | --- |
| CCOc1nc(NC(=O)Cc2cc(OC)ccc2OC)cc(N)c1C#N | MKNK1 (Homo sapiens, UniProt Q9BUB5) | enzyme activity, inhibitor | – | 0.5 µM | reference: control | remaining activity | 105% |
| PhoQ, residues 284 288 289 292 302 303 SCEHLI | PhoP, residues 12 14 15 18 19 LHSVQ (Escherichia coli, UniProt P23836) | Sort-seq, refers to: YFP reporter | E. coli | PhoQ-PhoP variant library, with: 10 µM Mg2+ | reference: high Mg2+ state, higher = stronger signaling | fold induction | 1.53 |

Excerpt of the above (study 1):
| Variant | normalised enrichment score |
| --- | --- |
| VSAVQKLDFSDTG [M13G] | 1.14 |
| VSAVQKLDFSDIM [T12I] | 0.717 |
| VSAVQKLDFSDTQ [M13Q] | 0.114 |
